Experimental data gathered from unrelated publications.
Lines come from different studies, so protocols differ. “And” joins repeats or separate records; there may be more than shown. ± marks the error that the study gave.

SMILES	test	system	setting	how to read	measurement	result
CC(C)C[C@@H](NC(=O)[C@@H](CCCNC(=N)N)NC(=O)[C@@H](Cc1c[nH]cn1)NC(=O)[C@@H](Cc1c[nH]c2ccccc12)NC(=O)[C@@H](Cc1c[nH]cn1)NC(=O)[C@@H](Cc1ccccc1)NC(=O)[C@H](NC(=O)[C@@H](Cc1ccc(O)cc1)NC(=O)CNC(=O)CNC(=O)CCOCCOCCOCCNC(=O)CN1CCN(CC(=O)O)CCN(CC(=O)O)CC1)[C@H](C)O)C(=O)N[C@H](CC(N)=O)C(=O)N1CCC[C@@H]1C(=O)O [gallium-68 labelled]	–	male C57BL/6 mice	intravenous, 1.85 MBq, 60 min, together with: antibody blocking	reference: tumour over blood	tumour-to-tissue ratio	4.89 ± 0.89
CC[C@H](C)C(=O)N1CCC(NC(=O)Nc2ccc(OC(F)(F)F)c(F)c2)CC1	–	healthy volunteers	oral, 8 mg single dose, device site dermatitis	–	subjects with dermatitis TEAE	0%
COc1cc(C(=O)NCCOCCOCCOCCNC(=O)c2ccc([18F])nc2)ccc1NC(=O)C1NC(CC(C)(C)C)C(C#N)(c2ccc(Cl)cc2F)C1c1cccc(Cl)c1F (stereo not shown)	–	athymic male mice, SJSA-1 xenograft	2 h	reference: tumour over blood	tumour-to-tissue ratio	1.15 ± 0.13
CSCC[C@H](NC(=O)CNC(=O)[C@H](CC(=O)O)NC(=O)[C@@H](NC(=O)[C@@H](NC(=O)[C@@H](NC(=O)CNC(=O)[C@H](CCC(N)=O)NC(=O)[C@H](CCSC)NC(=O)[C@H](CC(=O)O)NC(=O)[C@H](C)NC(=O)[C@H](C)NC(=O)[C@@H](NC(=O)[C@H](CO)NC(=O)[C@@H](N)CC(C)C)[C@@H](C)O)C(C)C)C(C)C)[C@@H](C)O)C(=O)N[C@@H](C)C(=O)N[C@@H](CO)C(=O)NCC(=O)N[C@@H](CC(C)C)C(=O)N[C@@H](CC(=O)O)C(=O)N[C@@H](CCCCN)C(=O)N[C@@H](CC(=O)O)C(=O)N[C@@H](Cc1ccc(O)cc1)C(=O)N[C@@H](CC(C)C)C(=O)N[C@@H](CCCCN)C(=O)N1CCC[C@H]1C(=O)N[C@@H](CC(=O)O)C(=O)N[C@@H](CC(=O)O)C(=O)O	–	human, serum	intravenous, 0.83 mg/kg, patients, infusion	–	Vd	0.547 L/kg
C=Cc1cc(O)cc2nc(-c3ccc(O)c([76Br])c3)oc12	–	female C57BL/6 mouse, uterus	1 h, high dose, together with: estradiol 20 µg blocking	–	tissue uptake	0.33 ± 0.22 %ID/g
CN[C@](C)(C[18F])C(=O)O	–	mouse, blood	2 h, tumour-bearing	–	tracer uptake	0.6 %ID/g
CCCCCOc1ccc(-c2cc(-c3ccc(C(=O)N[C@H]4C[C@@H](O)[C@@H](O)NC(=O)[C@@H]5[C@@H](O)[C@@H](C)CN5C(=O)[C@H]([C@H](O)CC(N)=O)NC(=O)[C@H]([C@H](O)[C@@H](O)c5ccc(O)c(O)c5)NC(=O)[C@@H]5C[C@@H](O)CN5C(=O)[C@H]([C@@H](C)O)NC4=O)cc3)no2)cc1	–	human severe hepatic dysfunction, plasma	intravenous, up to 12 h, concentration below limit	–	lower limit of quantification	< 0.05 µg/mL
C[C@H](NC(=O)[C@H](CCC(=O)O)NC(=O)[C@H](Cc1c[nH]cn1)NC(=O)[C@H](Cc1c[nH]cn1)NC(=O)CN1CCN(CC(=O)O)CCN(CC(=O)O)CCN(CC(=O)O)CC1)C(=O)N[C@@H](Cc1ccc(O)cc1)C(=O)NCC(=O)N[C@@H](Cc1c[nH]c2ccccc12)C(=O)N[C@@H](CC[S+](C)[O-])C(=O)N[C@@H](CC(=O)O)C(=O)N[C@@H](Cc1ccccc1)C(N)=O (stereo partly shown)	–	MF1 nude mouse, male, AR-42J xenograft	intravenous, 0.2 µg, 4 h, 111In-labelled	reference: tumour over kidney	tumour-to-kidney ratio	0.1
COCCOCCOCCOc1ccc(/C=C/c2c(I)c(C)c3n2[B-](F)(F)[N+]2=C(C)C(I)=C(C)C2=C3c2cc(OC)cc(OC)c2)cc1	–	THF	–	reference: methylene blue	fluorescence quantum yield	0.32
c1ccc(C2(CCNC3CCC4(SCCS4)c4ccccc43)CCOC3(CCCC3)C2)nc1 (stereo not shown)	–	rat, brain homogenate	–	–	fraction unbound	0.0048
CC[C@@H](C)[C@H](NC(=O)[C@H](C)NC(=O)[C@H](CCCCN)NC(=O)[C@H](CC(C)C)NC(=O)[C@H](C)NC(=O)[C@@H](NC(=O)[C@H](Cc1c[nH]cn1)NC(=O)[C@H](CC(C)C)NC(=O)[C@@H](NC(=O)[C@@H](NC(=O)[C@H](CCCCN)NC(=O)[C@H](CCCCN)NC(=O)[C@H](C)NC(=O)[C@H](CO)NC(=O)[C@H](CCCCN)NC(=O)[C@H](Cc1ccccc1)NC(=O)[C@@H](NC(=O)[C@H](CCCCN)NC(=O)[C@H](CC(C)C)NC(=O)[C@H](Cc1ccccc1)NC(=O)[C@H](CO)NC(=O)[C@H](CCCCN)NC(=O)[C@H](Cc1c[nH]c2ccccc12)NC(=O)[C@H](CCCCN)NC(C)=O)[C@@H](C)O)[C@@H](C)O)C(C)C)[C@@H](C)O)C(=O)N[C@@H](CO)C(=O)N[C@@H](CO)C(N)=O	RP-HPLC	Zorbax 300 SB-C8 column	30 °C	–	retention time	28 min
CC(CCC(=O)NCC(=O)O)C1CCC2C3C(O)CC4CC(OC5OC(C(=O)O)C(O)C(O)C5O)CCC4(C)C3CCC12C (stereo not shown)	–	human, SLCO1B1 c.521 T/C, plasma	fasting, geometric mean, sex-adjusted	–	plasma concentration	44.6 ng/mL
COc1ccc(C)cc1NC(=O)OC1CC2CCCC(C1)N2Cc1ccc(CC[18F])cc1 (stereo not shown)	–	mouse, blood	30 min, tumour-bearing	–	tracer uptake	0.99 %ID/g
CSCC[C@H](NC(=O)[C@H](CC(C)C)NC(=O)CNC(=O)[C@@H](NC(=O)[C@H](Cc1ccccc1)NC(=O)[C@H](CO)NC(=O)[C@H](CC(=O)O)NC(=O)[C@@H](NC(=O)[C@H](CCCCN)NC(=O)[C@@H](N)Cc1cnc[nH]1)[C@@H](C)O)C(C)C)C(N)=O	–	diet-induced obese mice	subcutaneous, 1 mg/kg twice daily	–	tolerability	not toxic
O=C(O)CCC(NP(=O)(O)OCCC[C@@H](NC(=O)CCC(NC(=O)CCCCCNC(=O)CCCCCNC(=O)c1ccc([18F])cc1)C(=O)O)C(=O)O)C(=O)O (stereo partly shown)	radioactivity	mouse, CWR22Rv1 xenograft	1 h	reference: tumour over blood	tumour to blood ratio	24 and 24.2
N=C(N)NCc1ccc(C(=O)NCCCC[C@H](NC(=O)N[C@@H](CCC(=O)O)C(=O)O)C(=O)O)cc1[131I]	–	SCID mouse, PC-3 xenografts, blood	2 h	–	tissue uptake	0.37 ± 0.07 %ID/g
CCN(CC)c1ccc2c(-c3ccccc3C(=O)OCCC[18F])c3ccc(=[N+](CC)CC)cc-3oc2c1	PET imaging	rat, liver	dose not given, 55 min post injection	reference: value at 5 min	liver radioactivity	30 to 35%
CN(C)C(CNC(=O)Nc1cc(C(F)(F)F)ccc1N1CCOCC1)c1ccncc1 (stereo not shown)	–	mouse, serum	intraperitoneal, 180 mg/kg single dose	–	serum calcium	8.6 mg/dL
CC(=CCC(O)C(C)=Cc1csc(C)n1)CC=CC(C)C(O)C(C)C(=O)C(C)(C)C(O)CC(=O)O (stereo not shown)	–	human, plasma	intravenous infusion, 20.0 mg/m2 KOS-1584, 3 h infusion, cycle 1	reference: metabolite over KOS-1584	AUC ratio	9.65 ± 3.97%
CC(C)[C@H](NC(=O)CNC(=O)[C@H](CCC(N)=O)NC(=O)[C@H](C)N)C(=O)O	mild intensity	human	10 mg/kg, 3 days, thrice daily dosing	–	subjects with adverse events	50%
CC[C@H](C)[C@H](NC(=O)[C@H](CCC(=O)O)NC(=O)[C@H](CCC(=O)O)NC(=O)[C@H](Cc1ccccc1)NC(=O)[C@H](CC(=O)O)NC(=O)CNC(=O)[C@H](CC(N)=O)NC(=O)CNC(=O)CNC(=O)CNC(=O)CNC(=O)[C@@H]1CCCN1C(=O)[C@H](CCCNC(=N)N)NC(=O)[C@@H]1CCCN1C(=O)[C@H](N)Cc1ccccc1)C(=O)N1CCC[C@H]1C(=O)N[C@@H](CCC(=O)O)C(=O)N[C@@H](CCC(=O)O)C(=O)N[C@@H](Cc1ccc(O)cc1)C(=O)N[C@@H](CC(C)C)C(=O)O	LC-MS/MS	human plasma	4 h, 25 °C, stability, nominal 3.0 ng/mL	–	concentration	3.04 ± 0.1 ng/mL
CC(C)[C@H](NC(=O)[C@@H](NC(=O)[C@H](CCCNC(=N)N)NC(=O)[C@H](CCCNC(=N)N)NC(=O)[C@H](CCCNC(=N)N)NC(=O)[C@H](CCC(N)=O)NC(=O)[C@H](CCCNC(=N)N)NC(=O)[C@H](CCCNC(=N)N)NC(=O)[C@H](CCCCN)NC(=O)[C@H](CCCCN)NC(=O)[C@H](CCCNC(=N)N)NC(=O)CN)[C@@H](C)O)C(=O)N[C@H](C(=O)N[C@@H](CO)C(=O)N1CCC[C@H]1C(=O)O)[C@@H](C)O	–	mouse ICR, female	intranasal, 500 mg/kg single	–	day of death	5 days

A few entries again:
SMILES	test	system	setting	how to read	measurement	result
CC(CCC(=O)NCC(=O)O)C1CCC2C3C(O)CC4CC(OC5OC(C(=O)O)C(O)C(O)C5O)CCC4(C)C3CCC12C (stereo not shown)	–	human, SLCO1B1 c.521 T/C, plasma	fasting, geometric mean, sex-adjusted	–	plasma concentration	44.6 ng/mL
COc1ccc(C)cc1NC(=O)OC1CC2CCCC(C1)N2Cc1ccc(CC[18F])cc1 (stereo not shown)	–	mouse, blood	30 min, tumour-bearing	–	tracer uptake	0.99 %ID/g
CSCC[C@H](NC(=O)[C@H](CC(C)C)NC(=O)CNC(=O)[C@@H](NC(=O)[C@H](Cc1ccccc1)NC(=O)[C@H](CO)NC(=O)[C@H](CC(=O)O)NC(=O)[C@@H](NC(=O)[C@H](CCCCN)NC(=O)[C@@H](N)Cc1cnc[nH]1)[C@@H](C)O)C(C)C)C(N)=O	–	diet-induced obese mice	subcutaneous, 1 mg/kg twice daily	–	tolerability	not toxic
